Published values collected from several papers.
A part holds a random share of what one study measured. Substitutions count along the parent as printed.

Study 1
Target: CREBRF, bZIP domain (human)
Technique: DHFR protein complementation
Medium: yeast
Notes: single substitutions, most at no-binding floor
Relative to: wild-type JUN-FOS pair
Direction: higher = stronger binding
Starting sequence: JUN, bZIP domain (human); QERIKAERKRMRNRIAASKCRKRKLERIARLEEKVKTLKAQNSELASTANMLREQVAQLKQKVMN; partner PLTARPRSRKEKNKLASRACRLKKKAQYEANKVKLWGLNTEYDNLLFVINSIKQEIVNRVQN
Change | binding fitness [natural log]
V35L | -1.57
A49N | -1.54
K39H | -1.42
I28M | -1.45
S43I | -1.47

Study 2
Target: Phosphate system positive regulatory protein PHO4, full length, GST-tagged (PHO4, Saccharomyces cerevisiae, UniProt P07270, residues 1-312)
Technique: competition protein-binding microarray
Molecule type: double-stranded DNA, one strand shown
Medium: in vitro
Tested at: 2 µM
Notes: whole 60-bp probe, lowest competitor level
Added: Cbf1 competitor, 0.05 µM
Direction: higher = stronger binding
All sequences stand within: … GTCTTGATTCGCTTGACGCTGCTG
Residues (chain): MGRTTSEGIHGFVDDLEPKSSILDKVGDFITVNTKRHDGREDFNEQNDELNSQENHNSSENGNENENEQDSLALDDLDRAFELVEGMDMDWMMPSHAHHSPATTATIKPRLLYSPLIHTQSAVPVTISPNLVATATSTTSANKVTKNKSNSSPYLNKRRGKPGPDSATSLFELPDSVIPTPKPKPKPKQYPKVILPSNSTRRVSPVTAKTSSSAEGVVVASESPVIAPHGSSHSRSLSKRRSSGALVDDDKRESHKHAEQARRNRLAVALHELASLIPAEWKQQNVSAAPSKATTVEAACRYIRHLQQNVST
Sequence | fluorescence intensity
AAAGCGGTAATTTGCGTGGTGGGTGCAGATATCTAT | 5690 a.u.
CTTCTGTAAATTTGGGGAGTGGGTGGACGCGCCCCG | 4980 a.u.
CGTCCTAGCGATTGATGCGTGGGTGCCATGAGGAAG | 8540 a.u.
CTTTCCCGATCTTGCTGTGTGGGTGTAGCACATTTG | 5430 a.u.
CTTCTGTAAATTTGTATTGTGGGTGGACGCGCCCCG | 4700 a.u.

Study 3
Target: RING finger protein unkempt homolog, zinc fingers 1-6, GST-SBP tag (UNK, Homo sapiens, UniProt Q9C0B0, residues 30-357)
Sequence of UniProt Q9C0B0 (30-357, looked up): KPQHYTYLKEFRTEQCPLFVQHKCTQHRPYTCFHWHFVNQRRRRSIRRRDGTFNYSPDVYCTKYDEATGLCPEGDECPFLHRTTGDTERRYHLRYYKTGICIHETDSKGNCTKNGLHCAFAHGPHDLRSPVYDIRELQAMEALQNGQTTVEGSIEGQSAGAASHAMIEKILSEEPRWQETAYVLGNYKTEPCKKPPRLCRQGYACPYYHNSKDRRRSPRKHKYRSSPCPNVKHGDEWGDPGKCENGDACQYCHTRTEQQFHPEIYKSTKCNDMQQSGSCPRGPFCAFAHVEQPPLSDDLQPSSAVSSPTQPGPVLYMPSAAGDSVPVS
Technique: RNA Bind-n-Seq
Molecule type: RNA
Medium: in vitro
Tested at: not given
Notes: RNA with constant flanks, human and mouse sites, ends assumed
Relative to: input RNA pool
Direction: higher = stronger binding
All sequences stand within: GGGAGUUCUACAGUCCGACGAUC … CAACAGAGGAUUGAGCAUCA
Sequence | bound/input enrichment [ratio]
CCAAUUGACAAUGGUUCAAAAAUCACCAGCUACCUUUUAGAAUGGGAUGAGGGAAAGAGAAACAGUGGUUUCAGACAGUGUUUCUUUGGAAGCCAGAAGCACUGCAAACUGACAAAGCUC | 0.355
CCGACGACCAUCAUGAAUGCAGACAUUCUAGCCUACUGUCAGAAGGAAGGAUGGUGCAAACUCGCUUUUUACCUUCUAGCGUUUUUUUACUACCUAUACGGCAUGAUCUAUGUUCUGGUG | 0.515
AGAGACCUUCUGAAGACGUUUAAAAUCUCAUCUGACACCUUUGUAACCUACAUGAUGACUUUAGAAGACCAUUACCAUUCUGAUGUGGCAUAUCACAACAGCCUGCAUGCUGCUGACGUG | 0.121
UUUCCCAUUUAGUUUUGGUCUGUUUUUAGAUAGAAUUGGAAGAAACUGUAUAGUUAACAUGAGCUAAGUUGUCAAACCUAUGAUCUGAAGGAACCAAGACAGUAAAGUAUUAUUCGUUUC | 3.77
UUCACCGAGCUCAUUAAAGGAUUCGGUUGCCGAGGGGCCCAAGUAGAAGAAAUAUGGAGCUUAGAACCUGAGAGUUUUGAAAAGCUAAAGCCAGUUCAUGGGUUAAUUUUUCUUUUCAAG | 0.176
GCUUUUUACCUUCUAGCGUUUUUUUACUACCUAUACGGCAUGAUCUAUGUUCUGGUGAGCUCUUAGAACAACACAGAAGAAUCGGUCCAGUUAAGUGCAUGCAAAACGCCACCAAUGAAG | 0.453

Single results of other studies
Molecule | target | test | system | setting | how to read | measurement | result
PhoQ, residues 284 288 289 292 302 303 ALVSVA | PhoP, residues 12 14 15 18 19 IFFTR (Escherichia coli, UniProt P23836) | Sort-seq, measured: YFP reporter | E. coli | PhoQ-PhoP variant library, added: 10 µM Mg2+ | relative to: high Mg2+ state, higher = stronger signaling | fold induction | 4.42

Some of these lines once more (study 1):
Change | binding fitness [natural log]
A49N | -1.54
I28M | -1.45
K39H | -1.42
